Results gathered from unrelated publications.
Every numbered part comes from another study and shows a few of its results, in no order. Substitutions count along the parent as printed.

Study 1
Target: Prothrombin, mature alpha-thrombin (F2, Homo sapiens, UniProt P00734)
Technique: aptamer microarray, sandwich
Molecule type: DNA with 2'F-ANA
Sample: in vitro
Concentration: 200 nM
Notes: whole 15-mer aptamer, many near background
With: Cy3 exosite-II aptamer, 400 nM
Direction: higher = stronger binding
Strand: GGTTGGTGTGGTTGG
Modification	mean fluorescence intensity [a.u.]
2'F-ANA at 1 4 5 6 7 9 12 14 15	61.8
2'F-ANA at 1 3 6 7 8 9 10 12	114
2'F-ANA at 1 3 9 10 14	58.8
2'F-ANA at 2 3 5 7 8 10 13	87.4
2'F-ANA at 5 6 10 13 14 15	52.2
2'F-ANA at 2 4 9 10 12 14 15	63.4
2'F-ANA at 2 4 5 13 14	42.6
2'F-ANA at 1 3 4 6 7 10 14 15	48.1
2'F-ANA at 1 2 3 7 10 13 15	121
2'F-ANA at 1 4 6 9 10 12 13 14 15	46.2
2'F-ANA at 1 2 4 7 9 12 14 15	56.6
2'F-ANA at 2 4 5 6 7 9 10 11 15	50.2
2'F-ANA at 2 4 5 11 12 15	96.1
2'F-ANA at 2 3 6 7 8 9 10 11 14	251
2'F-ANA at 2 3 4 6 7 8 9 10 12 14 15	160
2'F-ANA at 1 2 3 8 9 14 15	76

Study 2
Target: Sal-like protein 4, full length isoform B (SALL4, Homo sapiens, UniProt Q9UJQ4-2, residues 1-616)
Technique: universal PBM
Molecule type: double-stranded DNA, one strand shown
Sample: in vitro
Concentration: not given
Notes: 8-mer, flanks averaged, mean of replicates
Direction: higher = stronger binding
Strand	E-score
CGTAGCAG	-0.134
CCTACGGC	-0.284
CGGATTCA	-0.057
AGTGGCCC	-0.229
TTCAAGAA	0.279
AGCTAGAG	-0.0774
GGAAACCA	-0.218
GTCTCTTA	0.0416
CAGTTAGG	-0.0671
GATCCTCC	-0.204
CTTATTTC	0.325
CTCGGTTC	-0.225
ACATCGAA	0.126
AATGCCGT	0.0493
ACGCTTAT	0.08
AAGCTAAA	0.0751
CATTCGAA	0.109

Study 3
Target: Interferon regulatory factor 5, full length, phosphomimetic (IRF5, Homo sapiens, UniProt Q13568-2, residues 1-514, K96S/S451D/S453D/S456D/S462D)
Technique: protein-binding microarray
Molecule type: double-stranded DNA, one strand shown
Sample: in vitro
Concentration: 250 nM
Notes: 60-bp whole probe
With: salmon DNA 0.4 mg/ml
Reference: random background probes
Direction: higher = stronger binding
Constant ends, left off below: GCCTAGCAC … GTCTTGATTCGCTTGACGCTGCTG
Strand	log fluorescence
TCTGTCCTGATAGCCCTGGCGTGCTAG	-0.331 z-score
TTAGGTCTCCAACTGCTTTAGTGCTAG	-0.503 z-score
TCATTTTTTTATTTATAACTGTGCTAG	1.26 z-score
TTCTGATTGAATCTCCCATTGTGCTAG	0.646 z-score
TCAGCTCTAGGTTCTCTGACTGTGCTA	-0.522 z-score
GACGAACTGGGGTTTCGAGCCGTGCTA	0.363 z-score
TTAGGTTCCCTTTTCTTTTAGTGCTAG	0.76 z-score
TCAACACTAGTTTTTACACTGTGCTAG	0.593 z-score
TTAGGACTGGACGCTGGGTTAGTGCTA	-0.456 z-score
GACGGTTCCCTTATCCTGACGTGCTAG	-0.394 z-score
TTAGATCTCAGTATCTATTAGTGCTAG	0.973 z-score
CTTGTTTTACAATTTGCTTTGTGCTAG	0.606 z-score
GACGATTTCGGGTTTCGAGGCGTGCTA	4.23 z-score
AATGGAACAAATATGTTTATGTGCTAG	0.365 z-score
TTAAGTTCCGGTTTCGGTTAGTGCTAG	10.1 z-score
GACGGTCTCGGTCTCGGGGCGTGCTAG	0.0577 z-score

Study 4
Target: RING finger protein unkempt homolog, zinc fingers 1-6, GST-SBP tag (UNK, Homo sapiens, UniProt Q9C0B0, residues 30-357)
Sequence of UniProt Q9C0B0 (30-357, looked up): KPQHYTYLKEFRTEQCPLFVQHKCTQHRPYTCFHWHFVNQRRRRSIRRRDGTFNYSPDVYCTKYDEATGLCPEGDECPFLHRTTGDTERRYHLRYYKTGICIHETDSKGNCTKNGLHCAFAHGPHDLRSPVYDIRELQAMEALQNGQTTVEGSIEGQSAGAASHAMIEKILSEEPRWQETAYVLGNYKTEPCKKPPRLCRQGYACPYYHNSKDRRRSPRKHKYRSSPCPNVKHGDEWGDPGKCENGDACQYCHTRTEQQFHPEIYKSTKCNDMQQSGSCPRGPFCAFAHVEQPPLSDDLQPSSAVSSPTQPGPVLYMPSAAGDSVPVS
Technique: RNA Bind-n-Seq
Molecule type: RNA
Sample: in vitro
Concentration: not given
Notes: RNA with constant flanks, human and mouse sites, ends assumed
Reference: input RNA pool
Direction: higher = stronger binding
Strand	bound/input enrichment
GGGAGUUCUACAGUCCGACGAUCUAAAUCCCUCCCUCAAGAAUGGCUUUGGUGUGAAACGUGGUGUGAUGACGCCUCUAAGAAAAGGGCAAAAACCAUUGAUUUGUGUAAUAAUCCGAUGACCAAAGAGCCGAAACUGGAAGCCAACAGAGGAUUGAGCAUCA	0.309 ratio
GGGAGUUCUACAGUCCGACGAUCGUCAACAGUUGUCUCAAUCCCAUUCUCUAUGCUUUCUUGGAUGAGAACUUCAAGGCCUGCUUUAGAAAGUUCUGCUGUGCUUCUGCCCUGCACCGGGAGAUGCAGGUUUCUGAUCGUGUGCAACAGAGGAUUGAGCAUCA	0.416 ratio
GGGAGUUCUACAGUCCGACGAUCAUUUGCAGAAACAGCGAGAACUUCAAAAGGCCAAUCAGUAAGUUUGAUUUGAAAAAUGAAUUUAGAGAUUUUUGGACAUGGAAUGAACAAAAUGGGGUCAUAUUGGUACCUCCCUCUCUACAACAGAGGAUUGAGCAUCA	0.296 ratio
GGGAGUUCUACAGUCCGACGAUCCAGAAAUAGGAUAGCAGGCUUUGAAGUAAAAGCCUAUGCUAACCCUACAGUGGUUCGAUGUGAAAUUCACCAUGGGCAGACUGGAGGAAUAUAUGUCCAUGAAAAAGGAAGAGGACAAUUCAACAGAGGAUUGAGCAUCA	0.223 ratio
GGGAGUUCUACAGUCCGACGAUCCUGAAGGUUCUAGGCACAGCUUUUGAUCCCUUCUUAGGAGGAAAGAACUUUGAUGAGAAGCUAGUAGAACAUUUUUGUGCUGAAUUUAAAACCAAGUACAAAUUGGAUGCAAAAUCCAAACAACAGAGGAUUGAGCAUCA	0.34 ratio
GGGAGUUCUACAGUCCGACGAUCCAGCAGGAAAAAAUUAAGAGAAUACAGCAAAUCAGAAUGGAGAAAGAACUGAGAGCUCAGCAGAUUCUCGAGGCUAAAAAGAAAAAGAAGGAAGAAGCGGCAAAUGCCAAAUUAUUGGAGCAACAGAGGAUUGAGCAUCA	0.619 ratio
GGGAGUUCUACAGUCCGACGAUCGACAAAUGGUGAUAUAUUUCCUUAAAAAAGCUGUUUCUCAACUUUAAUUUUCUUUCAAAACUGAGAAUAUACCCAGAUACUACCCUUAGUUUCACUCACAUGUAUGCUGCAGAACAAGUGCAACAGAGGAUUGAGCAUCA	0.266 ratio
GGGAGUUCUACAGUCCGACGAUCAUUGAAAUAUUCACUGACCUCAGCAGCCGAUUCAGCAAAAGUCAGCUGGAUAUUAUAAUUCAUAGCUUGAAGAAAUGUGACAUCUCCCUGCAAUUCUUCUUGCCUUUCUCACUUGGCAAGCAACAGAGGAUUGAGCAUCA	0.229 ratio

Study 5
Target: ABI1, truncated, D143A, DHFR fusion (Arabidopsis thaliana, UniProt P49597)
Technique: DHFR PCA, dose-response
Sample: yeast
Notes: Hill fit, mean, not affinity
With: (+)-ABA, dose series
Direction: lower = more sensitive
Starting sequence: PYL1, truncated, DHFR fusion (Arabidopsis thaliana, UniProt Q8VZS8); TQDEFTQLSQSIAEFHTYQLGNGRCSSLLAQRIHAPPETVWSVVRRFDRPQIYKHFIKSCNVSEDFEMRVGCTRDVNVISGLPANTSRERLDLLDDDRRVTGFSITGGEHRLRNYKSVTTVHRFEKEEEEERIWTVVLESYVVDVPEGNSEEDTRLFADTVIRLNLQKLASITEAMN
Substitution	ABA EC50 [µM]
L28K	39.8
R46C	7.31
T39Q	2.6
L82T	146
Q10F	22.5
N22I	1.99
D97V	2.7
Q167C	2.6
T17A	14.5
L20I	5.46
I52V	1.09
I33V	5.6
H122M	404
F66C	4.87

Study 6
Target: CCNA2, cyclin fold, Cln2 fusion (human)
Technique: yeast growth competition, sequencing
Sample: yeast
Notes: strong parent motif
Reference: not given
Direction: higher = stronger binding
Starting sequence: PKN2 docking peptide (human); VSAVRKLDFSDTM; partner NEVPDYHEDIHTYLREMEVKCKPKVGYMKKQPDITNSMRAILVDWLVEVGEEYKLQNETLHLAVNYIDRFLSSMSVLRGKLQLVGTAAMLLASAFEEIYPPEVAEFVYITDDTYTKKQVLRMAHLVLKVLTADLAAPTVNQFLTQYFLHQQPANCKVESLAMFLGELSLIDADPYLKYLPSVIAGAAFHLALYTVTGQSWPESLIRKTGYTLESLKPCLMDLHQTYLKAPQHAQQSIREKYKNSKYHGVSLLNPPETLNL
Substitution	normalised enrichment score
VSAVRHLDFSDTM [K6H]	5.01
VSTVRKLDFSDTM [A3T]	4.16
VMAVRKLDFSDTM [S2M]	4.89
VEAVRKLDFSDTM [S2E]	3.36
VSAVNKLDFSDTM [R5N]	0.0653
VCAVRKLDFSDTM [S2C]	5.3
VSAVRKLDFSDPM [T12P]	5.27
VSAVRKLDISDTM [F9I]	0.447
VSAVRKCDFSDTM [L7C]	0.0888
VSAVRKLDFSATM [D11A]	5.46
VSAVRKLDFSDYM [T12Y]	5.44
VSAVRKLDFHDTM [S10H]	4.9
VSAVRCLDFSDTM [K6C]	4.86
VSAVWKLDFSDTM [R5W]	0.423
VLAVRKLDFSDTM [S2L]	4.71
VSSVRKLDFSDTM [A3S]	4.82
VSAVRKLDFCDTM [S10C]	5.04
VIAVRKLDFSDTM [S2I]	4.91
VSAVRKTDFSDTM [L7T]	0.336

Study 7
Target: DDIT3, bZIP domain (human)
Technique: DHFR protein complementation
Sample: yeast
Notes: single substitutions, most at no-binding floor
Reference: wild-type JUN-FOS pair
Direction: higher = stronger binding
Starting sequence: JUN, bZIP domain (human); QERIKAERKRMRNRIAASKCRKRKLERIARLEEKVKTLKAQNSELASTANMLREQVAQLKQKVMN; partner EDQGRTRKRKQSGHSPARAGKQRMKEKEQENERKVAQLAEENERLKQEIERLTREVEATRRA
Substitution	binding fitness
T48D	-0.574 natural log
Q41R	-0.0647 natural log
L52I	-0.775 natural log
S43N	0.0581 natural log
L38A	-1.17 natural log
I28E	-0.106 natural log
K36L	0.0103 natural log
L31N	-0.768 natural log
K34T	0.0969 natural log
T48R	0.146 natural log
L45G	-1.26 natural log
L45S	-1.22 natural log
K36M	0.117 natural log

For quick reference, copied from above (study 6):
Substitution	normalised enrichment score
VSSVRKLDFSDTM [A3S]	4.82
VCAVRKLDFSDTM [S2C]	5.3
VIAVRKLDFSDTM [S2I]	4.91
VSTVRKLDFSDTM [A3T]	4.16
VSAVRKLDFSDPM [T12P]	5.27
VSAVWKLDFSDTM [R5W]	0.423
VSAVRKCDFSDTM [L7C]	0.0888
VSAVRKTDFSDTM [L7T]	0.336
VLAVRKLDFSDTM [S2L]	4.71
VSAVRKLDFCDTM [S10C]	5.04
VEAVRKLDFSDTM [S2E]	3.36
VMAVRKLDFSDTM [S2M]	4.89
VSAVRCLDFSDTM [K6C]	4.86
